Measurements gathered from unrelated publications.
Lines come from different studies, so protocols differ.
Target: Fibroblast growth factor receptor 2 (FGFR2, Homo sapiens, UniProt P21802)
Sequence of UniProt P21802 (whole entry, looked up): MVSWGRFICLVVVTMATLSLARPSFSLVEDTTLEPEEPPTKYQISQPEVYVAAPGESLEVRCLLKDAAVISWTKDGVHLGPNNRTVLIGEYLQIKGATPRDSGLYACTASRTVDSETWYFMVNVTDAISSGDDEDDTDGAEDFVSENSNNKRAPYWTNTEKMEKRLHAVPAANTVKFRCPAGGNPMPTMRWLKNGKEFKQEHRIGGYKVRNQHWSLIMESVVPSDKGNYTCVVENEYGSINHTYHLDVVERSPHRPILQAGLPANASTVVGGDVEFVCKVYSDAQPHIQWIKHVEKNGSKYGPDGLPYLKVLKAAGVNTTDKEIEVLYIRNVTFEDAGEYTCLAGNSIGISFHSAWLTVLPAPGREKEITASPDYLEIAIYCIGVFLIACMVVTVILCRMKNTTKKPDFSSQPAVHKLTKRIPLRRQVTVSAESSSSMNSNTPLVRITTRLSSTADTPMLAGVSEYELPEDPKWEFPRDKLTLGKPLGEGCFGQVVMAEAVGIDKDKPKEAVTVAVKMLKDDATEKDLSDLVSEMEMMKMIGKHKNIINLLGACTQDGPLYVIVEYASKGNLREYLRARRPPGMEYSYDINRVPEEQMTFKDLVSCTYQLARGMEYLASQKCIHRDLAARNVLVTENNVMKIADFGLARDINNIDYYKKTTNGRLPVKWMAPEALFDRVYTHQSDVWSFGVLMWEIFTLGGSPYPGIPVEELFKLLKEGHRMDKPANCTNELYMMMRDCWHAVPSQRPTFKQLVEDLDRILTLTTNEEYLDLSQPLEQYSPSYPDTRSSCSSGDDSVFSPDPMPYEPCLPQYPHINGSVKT

C=CC(=O)N1CC=C(c2c(-c3ccc(Oc4cccc(C)n4)cc3)c3c(N)ncnc3n2C)C1 — IC50 (Caliper mobility shift; 30 min preincubation, with: 100 µM ATP): 6 nM
CN1CCN(c2ccc(/C=C3\C(=O)Nc4ccc(-c5ccc(-c6ccc(O)cc6)cc5)cc43)cc2)CC1 — IC50 (enzyme activity, inhibitor): 6970 nM
Cc1nc2ccc(Cc3c[nH]c4ncc(C(F)(F)F)cc34)cc2o1 — IC50 (enzyme activity, inhibitor): 259 nM
COCCOCCOc1cc2nccc(Oc3ccc(NC(=O)NC4CC4)c(Cl)c3)c2cc1C(N)=O — IC50 (enzyme activity, inhibitor): 40 nM
C=CC(=O)N1CCC(c2c(-c3ccc(OC)cc3)c3c(N)ncnc3n2C)C1 (centres unmarked) — IC50 (Caliper mobility shift; 30 min preincubation, with: 100 µM ATP): 480 nM
O=c1[nH]c2ccccc2nc1/C=C/c1ccccc1Br — IC50 (enzyme activity, inhibitor, TR-FRET): > 100000 nM
COc1cc(OC)cc(C(O)c2c[nH]c3ncc(C(F)(F)F)cc23)c1 (centres unmarked) — IC50 (enzyme activity, inhibitor): 66 nM
Cc1[nH]nc2c1N=C(c1ccccc1Cl)c1cnc(N3CCOCC3)cc1N2 — IC50 (enzyme activity, inhibitor): 1.5 nM

A few entries again:
C=CC(=O)N1CCC(c2c(-c3ccc(OC)cc3)c3c(N)ncnc3n2C)C1 (centres unmarked) — IC50 (Caliper mobility shift; 30 min preincubation, with: 100 µM ATP): 480 nM
